# Assay results gathered from unrelated publications.
# Lines come from different studies, so protocols differ. Several values in a cell are separate wells, animals, samples, runs or records. ± marks the error that the study gave.
# 4'-phosphopantetheinyl transferase PptT: 4'-phosphopantetheinyl transferase PptT (Mycobacterium tuberculosis, UniProt O33336)
# UniProt O33336, sequence (whole entry, looked up): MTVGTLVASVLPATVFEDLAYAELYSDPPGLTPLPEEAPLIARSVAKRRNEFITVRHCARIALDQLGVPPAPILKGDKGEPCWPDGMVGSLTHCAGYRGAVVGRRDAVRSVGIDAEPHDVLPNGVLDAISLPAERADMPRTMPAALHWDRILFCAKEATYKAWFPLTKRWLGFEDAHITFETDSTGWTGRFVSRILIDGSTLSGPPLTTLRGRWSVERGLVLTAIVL
# MAP3K2: Mitogen-activated protein kinase kinase kinase 2 (MAP3K2, Homo sapiens, UniProt Q9Y2U5)
# UniProt Q9Y2U5, sequence (whole entry, looked up): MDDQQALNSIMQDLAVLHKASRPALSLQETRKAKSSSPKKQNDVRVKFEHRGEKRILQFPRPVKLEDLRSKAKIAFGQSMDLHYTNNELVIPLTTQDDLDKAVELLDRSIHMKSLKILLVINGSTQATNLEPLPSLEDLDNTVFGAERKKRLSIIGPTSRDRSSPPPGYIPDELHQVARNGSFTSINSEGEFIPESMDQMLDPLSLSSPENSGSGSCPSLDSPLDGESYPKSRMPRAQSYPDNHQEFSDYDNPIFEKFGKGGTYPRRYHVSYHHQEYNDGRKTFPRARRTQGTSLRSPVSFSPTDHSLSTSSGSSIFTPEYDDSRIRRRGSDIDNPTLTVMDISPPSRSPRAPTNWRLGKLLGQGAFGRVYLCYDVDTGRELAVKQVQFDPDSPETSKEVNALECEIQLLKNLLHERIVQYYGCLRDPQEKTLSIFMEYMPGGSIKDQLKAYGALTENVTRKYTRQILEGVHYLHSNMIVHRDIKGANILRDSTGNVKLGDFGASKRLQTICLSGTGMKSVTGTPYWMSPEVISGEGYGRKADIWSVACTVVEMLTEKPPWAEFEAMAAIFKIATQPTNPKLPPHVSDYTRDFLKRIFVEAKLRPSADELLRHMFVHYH
# F2 gamma-thrombin: Prothrombin, gamma-thrombin (F2, Homo sapiens, UniProt P00734)
# UniProt P21554, sequence (whole entry, unmodified, looked up): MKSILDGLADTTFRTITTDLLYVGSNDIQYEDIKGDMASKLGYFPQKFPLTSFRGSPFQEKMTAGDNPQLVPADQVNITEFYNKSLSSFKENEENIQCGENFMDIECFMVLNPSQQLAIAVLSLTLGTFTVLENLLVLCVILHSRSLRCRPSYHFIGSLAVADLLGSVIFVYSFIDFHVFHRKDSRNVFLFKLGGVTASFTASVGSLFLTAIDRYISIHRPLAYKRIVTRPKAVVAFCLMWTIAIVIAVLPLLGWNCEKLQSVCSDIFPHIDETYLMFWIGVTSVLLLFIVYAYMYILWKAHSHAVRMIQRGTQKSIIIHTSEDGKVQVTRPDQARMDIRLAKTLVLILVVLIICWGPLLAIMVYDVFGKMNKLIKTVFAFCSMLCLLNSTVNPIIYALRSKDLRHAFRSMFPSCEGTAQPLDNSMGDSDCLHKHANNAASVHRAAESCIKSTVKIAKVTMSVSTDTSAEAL
# UniProt P08311, sequence (whole entry, looked up): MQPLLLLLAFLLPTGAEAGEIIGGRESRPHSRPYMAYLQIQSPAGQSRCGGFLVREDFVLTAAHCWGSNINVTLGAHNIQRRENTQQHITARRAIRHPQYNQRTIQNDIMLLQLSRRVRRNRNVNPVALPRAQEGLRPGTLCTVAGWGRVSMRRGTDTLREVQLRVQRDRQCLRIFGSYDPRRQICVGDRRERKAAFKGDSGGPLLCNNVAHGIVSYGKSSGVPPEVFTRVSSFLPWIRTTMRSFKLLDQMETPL
# UniProt P34972, sequence (whole entry, unmodified, looked up): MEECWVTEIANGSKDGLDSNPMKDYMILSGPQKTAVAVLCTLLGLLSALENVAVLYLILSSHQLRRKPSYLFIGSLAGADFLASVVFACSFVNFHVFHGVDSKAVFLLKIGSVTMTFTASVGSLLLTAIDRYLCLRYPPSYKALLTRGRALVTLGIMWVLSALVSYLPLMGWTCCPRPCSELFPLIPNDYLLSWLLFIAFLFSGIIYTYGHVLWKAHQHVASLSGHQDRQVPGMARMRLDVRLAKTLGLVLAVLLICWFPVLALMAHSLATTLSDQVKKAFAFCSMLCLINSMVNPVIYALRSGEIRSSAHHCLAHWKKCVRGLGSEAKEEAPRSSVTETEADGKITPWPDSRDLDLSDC
# UniProt P9WPP7, sequence (whole entry, looked up): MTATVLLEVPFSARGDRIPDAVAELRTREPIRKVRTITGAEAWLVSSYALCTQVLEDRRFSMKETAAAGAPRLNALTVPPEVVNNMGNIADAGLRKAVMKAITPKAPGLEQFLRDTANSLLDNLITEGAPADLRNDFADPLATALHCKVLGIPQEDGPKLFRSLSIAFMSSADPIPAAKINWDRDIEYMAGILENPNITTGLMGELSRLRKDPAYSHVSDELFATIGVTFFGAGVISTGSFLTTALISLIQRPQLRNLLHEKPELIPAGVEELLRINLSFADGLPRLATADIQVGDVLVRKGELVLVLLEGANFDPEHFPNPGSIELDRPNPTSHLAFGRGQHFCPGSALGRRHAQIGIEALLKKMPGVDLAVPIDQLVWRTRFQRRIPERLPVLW
# UniProt P41143, sequence (whole entry, unmodified, looked up): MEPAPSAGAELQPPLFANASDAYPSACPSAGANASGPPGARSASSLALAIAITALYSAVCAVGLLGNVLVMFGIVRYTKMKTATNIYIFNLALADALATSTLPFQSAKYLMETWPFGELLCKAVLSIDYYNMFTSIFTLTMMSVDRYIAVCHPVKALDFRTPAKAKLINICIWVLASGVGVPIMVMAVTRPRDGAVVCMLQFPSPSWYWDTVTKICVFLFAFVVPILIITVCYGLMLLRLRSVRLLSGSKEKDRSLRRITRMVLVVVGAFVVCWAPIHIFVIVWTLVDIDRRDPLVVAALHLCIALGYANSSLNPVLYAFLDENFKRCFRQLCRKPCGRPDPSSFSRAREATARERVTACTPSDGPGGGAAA
# UniProt Q9Y243, sequence (whole entry, looked up): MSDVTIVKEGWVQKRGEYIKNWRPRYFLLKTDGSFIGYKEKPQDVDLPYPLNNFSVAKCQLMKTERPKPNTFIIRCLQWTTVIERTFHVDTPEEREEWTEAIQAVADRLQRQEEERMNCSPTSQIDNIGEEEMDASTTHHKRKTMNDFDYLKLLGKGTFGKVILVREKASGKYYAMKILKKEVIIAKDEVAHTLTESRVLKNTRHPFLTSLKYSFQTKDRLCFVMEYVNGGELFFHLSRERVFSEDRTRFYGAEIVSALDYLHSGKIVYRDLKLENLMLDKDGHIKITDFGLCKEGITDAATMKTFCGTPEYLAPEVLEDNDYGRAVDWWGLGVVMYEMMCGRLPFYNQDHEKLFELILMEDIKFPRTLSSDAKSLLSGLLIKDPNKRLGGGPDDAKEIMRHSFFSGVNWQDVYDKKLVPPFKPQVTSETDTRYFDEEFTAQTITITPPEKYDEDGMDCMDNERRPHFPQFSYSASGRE
# UniProt P41595, sequence (whole entry, looked up): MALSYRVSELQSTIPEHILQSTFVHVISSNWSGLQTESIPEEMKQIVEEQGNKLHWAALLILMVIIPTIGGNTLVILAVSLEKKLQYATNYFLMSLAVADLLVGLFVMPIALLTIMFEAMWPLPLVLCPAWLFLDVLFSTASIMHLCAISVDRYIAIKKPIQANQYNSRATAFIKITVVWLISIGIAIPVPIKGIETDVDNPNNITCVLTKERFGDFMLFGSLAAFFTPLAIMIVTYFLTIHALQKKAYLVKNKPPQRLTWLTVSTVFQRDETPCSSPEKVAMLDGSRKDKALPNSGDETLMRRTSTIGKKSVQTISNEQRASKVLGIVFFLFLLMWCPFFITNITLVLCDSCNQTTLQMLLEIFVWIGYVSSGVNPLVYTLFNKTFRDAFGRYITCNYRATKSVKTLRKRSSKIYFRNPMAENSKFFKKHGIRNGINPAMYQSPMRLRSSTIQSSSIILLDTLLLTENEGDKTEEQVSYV
Compound,tested on,test,test system,conditions,scale,quantity,value
CC(C)(C)C(=O)OCOP(=O)(OCOC(=O)C(C)(C)C)C1CCCN(O)C1=O (stereo not shown),UACC-257,,,,,log TGI,-4.87 log M
CCN(CC)C(=O)c1ccc(C(c2cccc(O)c2)N2CC(C)N(Cc3ccccc3)CC2C)cc1 (stereo not shown),"OPRD1 (Homo sapiens, UniProt P41143, Y129F)",,,,,Ki,1.04 ± 0.27 nM
Cc1nc2ccc(CNc3ccc(C(=O)NC(CCC(=O)O)C(=O)O)cc3F)cc2c(=O)[nH]1 (stereo not shown),4'-phosphopantetheinyl transferase PptT,"enzyme activity, inhibitor, FP",,,,IC50,36 nM
c1cn(Cc2ccc(-c3ccc4c(c3)OCO4)cc2)cn1,"cyp121 (Mycobacterium tuberculosis, UniProt P9WPP7)","mycocyclosin formation, inhibitor, LC-MS/MS",,together with: cYY 20 µM,,IC50,36000 nM
CC(C)CC(C(=O)N1CC2(CC1C#N)C(=O)Nc1ccccc12)N(C)C(=O)c1cc2c(F)cc(F)c(F)c2[nH]1 (stereo not shown),"Cathepsin G (CTSG, Homo sapiens, UniProt P08311)","enzyme activity, inhibitor",,,,IC50,72100 nM and > 100000 nM
CCN(Cc1ccc2nc(C)[nH]c(=O)c2c1)c1ccc(C(=O)NC(CCC(=O)O)C(=O)O)s1 (stereo not shown),4'-phosphopantetheinyl transferase PptT,"enzyme activity, inhibitor, FP",,,,IC50,53 nM
Cc1ccc2c(C(C[N+](=O)[O-])c3cccs3)c(-c3ccccc3)[nH]c2c1 (stereo not shown),"CNR1 (Homo sapiens, UniProt P21554)","β-arrestin2 recruitment, agonist, NanoBiT",,,,EC50,220 ± 10 nM
C#CCN(Cc1ccc2nc(C)[nH]c(=O)c2c1)c1ccc(C(=O)N[C@@H](CSCCC(=O)O)C(=O)O)cc1,4'-phosphopantetheinyl transferase PptT,"enzyme activity, inhibitor, FP",,,,IC50,59 nM
CN(C)[C@H]1C[C@@]23CC[C@@]4(O2)C(=CC[C@]2(C)[C@@H](c5ccc6ccncc6c5)CC[C@H]24)C=C3[C@@H](O)[C@@H]1O,MAP3K2,"ATP probe labelling, inhibitor, KiNativ profiling",,1 µM,,inhibition,-13.3%
C=CCN(Cc1ccc2nc(C)[nH]c(=O)c2c1)c1cnc(C(=O)NC(CCC(=O)O)C(=O)O)s1 (stereo not shown),4'-phosphopantetheinyl transferase PptT,"enzyme activity, inhibitor, FP",,,,IC50,63 nM
CC(C)C[C@H](NC(=O)[C@H](CC(=O)O)NC(=O)[C@H](CCC(N)=O)NC(=O)[C@H](CC(N)=O)NC(=O)[C@H](CCC(N)=O)NC(=O)[C@@H](N)CC(C)C)C(=O)N[C@H]1CSSC[C@@H](C(=O)N[C@@H](CCCCN)C(=O)NCC(=O)N[C@@H](CO)C(=O)N[C@@H](CCCCNC(=O)CCCC[C@@H]2SC[C@@H]3NC(=O)N[C@@H]32)C(N)=O)NC(=O)[C@H](Cc2ccccc2)NC(=O)[C@H](Cc2ccc(O)cc2)NC(=O)[C@H](CC(=O)O)NC(=O)[C@H](C)NC(=O)[C@H](Cc2ccc(O)cc2)NC(=O)[C@H](CC(=O)O)NC1=O,anti-HA antibody 12CA5 (mouse),biolayer interferometry,,30 °C,,Kd,< 1 nM
CC[C@H](C)[C@H](NC(=O)[C@@H]1CCCN1C(=O)[C@H](CCC(=O)O)NC(=O)[C@H](CCSC)NC(=O)CNC(=O)[C@H](CC(N)=O)NC(=O)CNC(=O)CNC(=O)[C@H](CCC(=O)O)NC(=O)CNC(=O)[C@H](CCCNC(=N)N)NC(=O)[C@H](CCC(N)=O)NC(=O)[C@H](Cc1ccc(O)cc1)NC(=O)[C@H](CC(C)C)NC(=O)[C@H](CCCCN)NC(=O)[C@@H]1CCCN1C(=O)[C@H](CCC(N)=O)NC(=O)[C@H](C)NC(=O)[C@@H](NC(=O)[C@H](CCC(=O)O)NC(=O)[C@H](C)NC(=O)[C@H](CCC(=O)O)NC(=O)[C@@H](NC(=O)[C@@H]1CCCN1C(=O)[C@@H](N)CCCCN)C(C)C)C(C)C)C(=O)N1CCC[C@H]1C(=O)N[C@@H](CCC(=O)O)C(=O)N[C@@H](CC(=O)O)C(=O)N[C@@H](Cc1ccc(O)cc1)C(=O)N[C@@H](CC(C)C)C(=O)N[C@@H](CC(=O)O)C(=O)N[C@@H](CC(=O)O)C(=O)N[C@@H](CCC(=O)O)C(=O)N[C@@H](CO)C(=O)O,F2 gamma-thrombin,,,pH 8,,Ki,43800 ± 2090 nM
COc1ccccc1-c1n[nH]c2nc(N[C@H]3CC[C@H](NS(=O)(=O)CC(C)C)CC3)ncc12,LINJ.27.0510,bead competition pull-down,Leishmania extract,5 µM,relative to: vehicle,relative captured amount,1.28
CCCCCn1cc(C(=O)c2cccc3ccccc23)c2ccccc21,"CNR2 (Homo sapiens, UniProt P34972, L182I)","cAMP, agonist, BRET",,,,EC50,0.589 nM
CC(C)[C@H]1NC(=O)C[C@H]2/C=C/CCSSC[C@@H](NC1=O)C(=O)N[C@H](Cc1cccc3ccccc13)C(=O)NCC(=O)O2,MAP3K2,,,10 µM,,inhibition,1.5%
C#CCN(Cc1ccc2nc(C)[nH]c(=O)c2c1)c1ccc(C(=O)N[C@@H](CCC(=O)OC)C(=O)OC)cc1,4'-phosphopantetheinyl transferase PptT,"enzyme activity, inhibitor, fluorescence polarization",,enzyme 100 nM,,IC50,14200 nM
CC[C@H](C)[C@H](NC(=O)[C@@H]1CCCN1C(=O)[C@H](CCC(=O)O)NC(=O)[C@H](CCSC)NC(=O)CNC(=O)[C@H](CC(N)=O)NC(=O)CNC(=O)CNC(=O)[C@H](CCC(=O)O)NC(=O)CNC(=O)[C@H](CCCNC(=N)N)NC(=O)[C@H](CCC(N)=O)NC(=O)[C@H](Cc1ccc(O)cc1)NC(=O)[C@H](CC(C)C)NC(=O)[C@H](CCCCN)NC(=O)[C@@H]1CCCN1C(=O)[C@H](CCC(N)=O)NC(=O)[C@H](C)NC(=O)[C@@H](NC(=O)[C@H](CCC(=O)O)NC(=O)[C@H](C)NC(=O)[C@H](CCC(=O)O)NC(=O)[C@@H](NC(=O)[C@@H]1CCCN1C(=O)[C@@H](N)CCCCN)C(C)C)C(C)C)C(=O)N1CCC[C@H]1C(=O)N[C@@H](CCC(=O)O)C(=O)N[C@@H](CC(=O)O)C(=O)N[C@@H](Cc1ccc(OS(=O)(=O)O)cc1)C(=O)N[C@@H](CC(C)C)C(=O)N[C@@H](CC(=O)O)C(=O)N[C@@H](CC(=O)O)C(=O)N[C@@H](CCC(=O)O)C(=O)N[C@@H](CO)C(=O)O,F2 gamma-thrombin,,,pH 8,,Ki,2120 ± 116 nM
Cc1cc(C(=O)Nc2nc3cccc(C)c3n2[C@H]2CCCCN(C(=O)/C=C/CN(C)C)C2)ccn1,Trypanosoma brucei brucei,,2T1 CLK1 overexpressing,"2.5 µM, compound pretreated",relative to: maximum,survival,145% and 124% and 157% and 153%
CCN(Cc1ccc2nc(C)[nH]c(=O)c2c1)c1cnc(C(=O)NC(CCC(=O)O)C(=O)O)s1 (stereo not shown),4'-phosphopantetheinyl transferase PptT,"enzyme activity, inhibitor, FP",,,,IC50,88 nM
CCN(CC)C(=O)[C@@H]1C=C2c3cccc4c3c(cn4C(=O)c3ccco3)C[C@H]2N(C)C1,"HTR2B (Homo sapiens, UniProt P41595)","ligand displacement, radioligand",,,,Ki,9.8 nM
CS(C)(=O)=Nc1ccc(-c2ccc(-c3nc4cc(O[C@@H]5CO[C@H]6[C@@H]5OC[C@H]6O)[nH]c4cc3F)cc2)cc1,"AKT3 (Homo sapiens, UniProt Q9Y243)","enzyme activity, inhibitor",,10 µM,,inhibition,-14%
O=C1NC2(CC2)COc2ncc(F)cc2[C@H]2COCCN2c2ccn3ncc1c3n2,,,"Sprague-Dawley rat, female, serum","oral, 2.5 mg/kg/day, 4 weeks daily, end of recovery period",,total cholesterol,1.78 ± 0.38 mmol/L
CCCCCn1cc(C(=O)c2cccc3c2CC(C)(C)C3)c2ccccc21,"CNR1 (Homo sapiens, UniProt P21554, F170A)","G protein activation, agonist, BRET",,,,EC50,7590 nM
CC[C@H](C)[C@H](NC(=O)[C@H](CO)NC(=O)[C@H](Cc1ccc(O)cc1)NC(=O)[C@H](Cc1ccc(O)cc1)NC(=O)[C@H](CC(N)=O)NC(=O)CNC(=O)[C@H](CO)NC(=O)[C@H](Cc1ccc(O)cc1)NC(=O)[C@H](CO)NC(=O)[C@H](CO)NC(=O)[C@H](CC(N)=O)NC(=O)COCCOCCNC(=O)CN1CCN(CC(=O)O)CCN(CC(=O)O)CCN(CC(=O)O)CC1)C(=O)N[C@@H](CC(C)C)C(N)=O [copper-64 labelled],,dynamic PET,"KPC mouse, pancreatic cancer model, blood","intravenous, 1.1 min, 49 days after tamoxifen",,tumour uptake,25.6 %ID/mL
COc1ccccc1C(C[N+](=O)[O-])c1c(-c2ccccc2)[nH]c2ccccc12 (stereo not shown),"CNR1 (Homo sapiens, UniProt P21554, V171A)","G protein activation, agonist, BRET",,,,EC50,270 nM
CCCCCn1cc(C(=O)c2ccc3c(c2)CC(C)(C)C3)c2ccccc21,"CNR2 (Homo sapiens, UniProt P34972, V261L)","cAMP, agonist, BRET",,,,EC50,37.2 nM
O=[N+]([O-])CC(c1ccco1)c1c(-c2ccccc2)[nH]c2ccccc12 (stereo not shown),"Cannabinoid receptor 1, with Gi1 (CNR1, Homo sapiens, UniProt P21554)","Gi1 dissociation, agonist, BRET",HEK293,,,EC50,280 ± 10 nM
COc1ccccc1-c1n[nH]c2nc(NC3CCN(C(=O)Cc4ccc(F)cc4F)CC3)ncc12,Leishmania CRK3 LINJ.36.0600,bead competition pull-down,Leishmania donovani extract,10 µM,relative to: vehicle,relative captured amount,0.78 and 0.42

# A few entries again:
Compound,tested on,test,test system,conditions,scale,quantity,value
O=C1NC2(CC2)COc2ncc(F)cc2[C@H]2COCCN2c2ccn3ncc1c3n2,,,"Sprague-Dawley rat, female, serum","oral, 2.5 mg/kg/day, 4 weeks daily, end of recovery period",,total cholesterol,1.78 ± 0.38 mmol/L
CCCCCn1cc(C(=O)c2cccc3c2CC(C)(C)C3)c2ccccc21,"CNR1 (Homo sapiens, UniProt P21554, F170A)","G protein activation, agonist, BRET",,,,EC50,7590 nM
CC[C@H](C)[C@H](NC(=O)[C@H](CO)NC(=O)[C@H](Cc1ccc(O)cc1)NC(=O)[C@H](Cc1ccc(O)cc1)NC(=O)[C@H](CC(N)=O)NC(=O)CNC(=O)[C@H](CO)NC(=O)[C@H](Cc1ccc(O)cc1)NC(=O)[C@H](CO)NC(=O)[C@H](CO)NC(=O)[C@H](CC(N)=O)NC(=O)COCCOCCNC(=O)CN1CCN(CC(=O)O)CCN(CC(=O)O)CCN(CC(=O)O)CC1)C(=O)N[C@@H](CC(C)C)C(N)=O [copper-64 labelled],,dynamic PET,"KPC mouse, pancreatic cancer model, blood","intravenous, 1.1 min, 49 days after tamoxifen",,tumour uptake,25.6 %ID/mL
